Measurements collected from several papers.
A part holds a random share of what one study measured. Substitutions count along the parent as printed.
Chain of UniProt P53667 (whole entry, looked up): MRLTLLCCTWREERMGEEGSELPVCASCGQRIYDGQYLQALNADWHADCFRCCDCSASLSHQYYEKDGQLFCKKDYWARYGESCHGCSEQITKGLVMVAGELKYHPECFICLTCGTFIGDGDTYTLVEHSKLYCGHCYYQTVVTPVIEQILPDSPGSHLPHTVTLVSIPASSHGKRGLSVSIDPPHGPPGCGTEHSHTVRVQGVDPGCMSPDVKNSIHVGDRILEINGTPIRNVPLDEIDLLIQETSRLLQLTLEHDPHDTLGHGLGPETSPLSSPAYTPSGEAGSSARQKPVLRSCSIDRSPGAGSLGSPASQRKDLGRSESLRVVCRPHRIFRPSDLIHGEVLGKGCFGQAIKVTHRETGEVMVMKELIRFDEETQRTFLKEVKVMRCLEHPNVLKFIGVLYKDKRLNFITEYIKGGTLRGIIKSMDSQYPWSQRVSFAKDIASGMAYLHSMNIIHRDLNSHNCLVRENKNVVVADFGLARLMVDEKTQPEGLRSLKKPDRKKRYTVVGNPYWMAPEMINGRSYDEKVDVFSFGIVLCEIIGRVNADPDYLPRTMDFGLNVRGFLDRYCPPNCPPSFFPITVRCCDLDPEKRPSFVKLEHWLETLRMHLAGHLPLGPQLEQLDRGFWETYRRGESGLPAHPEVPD

Study 1 — target: CCNB2, cyclin fold, Cln2 fusion (human); technique: yeast growth competition, sequencing; medium: yeast; notes: weak parent motif; baseline: not given; reading: higher = stronger binding
Starting sequence: SLBP docking peptide (human); ARYKRKLLINDFG
Under “normalised enrichment score”, `ARYKRHLLINDFG [K6H]` is recorded as -0.218.
For `AREKRKLLINDFG [Y3E]`, “normalised enrichment score” read 0.804.
`ARYKAKALINDFG [R5A L7A]`: “normalised enrichment score” 0.331.
Under “normalised enrichment score”, `ARYKTKLLINDFG [R5T]` is recorded as 0.383.
`ARYKRKYLINDFG [L7Y]`: “normalised enrichment score” 0.899.
`ARYGRKLLINDFG [K4G]`: “normalised enrichment score” 0.331.
For `ARYKRKKLINDFG [L7K]`, “normalised enrichment score” read 0.695.
Under “normalised enrichment score”, `ARYKRKLLINDTG [F12T]` is recorded as 0.102.

Study 2 — technique: RNA Bind-n-Seq; molecule type: RNA; medium: in vitro; concentration: 200 nM; notes: whole 134-nt RNA, ends assumed; with: 150 mM LiCl; baseline: input library; reading: higher = stronger binding; all molecules: 7-deaza-guanosine replaces G
Target: Fragile X messenger ribonucleoprotein 1, C-terminal low-complexity region (Fmr1, Mus musculus, UniProt P35922)
Constant ends, left off below: GGGAGUUCUACAGUCCGACGAUC … UGGAAUUCUCGGGUGUCAAGG
With `CCUGUGCUACACAUCGUAUGUACCGAAUCGGCCCCCCGGGGCCCCCCGGGCCCCCCGGGGAAAGUAUUAUGUUACGCCGUUCGGAUCUGC` the log2 enrichment was -3.14.
With `GCAGGAAGUAAAAACAAAUGGAAAUGCUUCGGAUAGUGGCAGGGGUGGGGGUUGCUAAGGAGAGGGUGGGAUGGGAGUGGGUAAAGAGUU` the log2 enrichment was 1.42.
The log2 enrichment of `UAACUUUAGAGGAGGAUCUGAUGGAUAUGGCAGUGGACGUGGAUUUGGGGAUGGCUAUAAUGGGUAUGGAGGAGGACCGGGAGGUGGCAA` is reported as 0.861.
`CAAGUCCUGUGCUACACAUCGUAUGUACCGAAUCGGGGAGGGGAAAGGGGAGGGGAAAGUAUUAUGUUACGCCGUUCGGAUCUGCACUUC` gave a log2 enrichment of 0.526.
`CACAGACAACACGCACCCACACAGACACAGAGGGAAUGGGUUGGGAUGGGGACAGGGUGCACAGCAGGGCGGGGUAGGACCCCAGCCCCU` gave a log2 enrichment of -1.36.
`CCUCAAGUCCUGUGCUACACAUCGUAUGUACCGAAUCGGUGGGGUGGUGGGGAAAGUAUUAUGUUACGCCGUUCGGAUCUGCACUUCCAG` has a log2 enrichment of -0.23.
The log2 enrichment of `AGUCCUGUGCUACACAUCGUAUGUACCGAAUCGGUUUUUUUGGAAAAAGGAAAAAGGAAAGUAUUAUGUUACGCCGUUCGGAUCUGCACU` is reported as -3.25.
`CCUCAAGUCCUGUGCUACACAUCGUAUGUACCGAAUCGGAAAAAGGAGGUGGAAAGUAUUAUGUUACGCCGUUCGGAUCUGCACUUCCAG` gave a log2 enrichment of -0.126.

Study 3 — technique: protein-binding microarray; molecule type: double-stranded DNA, one strand shown; medium: in vitro; concentration: not given; reading: higher = stronger binding
Target: Cyclic AMP-dependent transcription factor ATF-1 (ATF1, Homo sapiens, UniProt P18846, residues 1-271, full length assumed)
Notes: k-mer, scored over probes, only values ≥0.25
Residues (chain): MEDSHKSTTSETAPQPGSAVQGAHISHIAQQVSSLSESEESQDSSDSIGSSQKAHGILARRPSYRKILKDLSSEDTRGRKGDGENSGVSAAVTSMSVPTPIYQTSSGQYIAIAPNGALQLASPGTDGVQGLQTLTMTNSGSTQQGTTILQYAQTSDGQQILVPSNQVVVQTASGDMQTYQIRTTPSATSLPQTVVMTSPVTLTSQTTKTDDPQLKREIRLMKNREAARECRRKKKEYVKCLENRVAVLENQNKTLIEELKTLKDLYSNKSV
For `ACGCGTG`, the E-score was 0.35.
The E-score of `ATGATGA` is reported as 0.263.
`AGACGTC` has an E-score of 0.299.
The E-score of `ATGACAG` is reported as 0.258.
`ACGTGCG` has an E-score of 0.319.
For `GCGTCAA`, the E-score was 0.312.
For `CACGAAA`, the E-score was 0.257.
`ACGTCGG` has an E-score of 0.321.

Other studies, line by line
With `Cc1ccc(NC(=O)c2ccc(CN3CCN(C)CC3)cc2)cc1Nc1nccc(-c2cccnc2)n1` the remaining activity was 90.1% (LIM domain kinase 1 (LIMK1, Homo sapiens, UniProt P53667); enzyme activity, inhibitor; 0.5 µM; baseline: control).
